Measurements pooled from the literature.
Each numbered part is a random draw from the data of one study; scales do not carry over between parts.

Sample 1
Target: Histone acetyltransferase KAT6A, winged helix 1, GST fusion (KAT6A, Homo sapiens, UniProt Q92794, residues 1-85)
Technique: protein binding microarray
Form: double-stranded DNA, one strand shown
Matrix: in vitro
Tested at: not given
Setting: 8-mer, flanks averaged, mean of 2 arrays, mostly near background
Reference: not given
Direction: higher = stronger binding
Construct (chain): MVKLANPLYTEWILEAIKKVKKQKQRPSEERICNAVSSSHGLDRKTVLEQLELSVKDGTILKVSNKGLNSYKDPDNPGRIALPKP
Sequence | E-score
CGCCGCAG | 0.328
GTGTGGAA | -0.103
CACCCCTA | -0.0924
CAGATGCA | -0.266
AATAAACG | 0.0985
ACAACAGA | -0.178
ACATACGG | 0.229
CAAGGTCC | -0.0287
GGCTAGTA | -0.2
CGTCCTAC | 0.0984
CCGATAAG | 0.0157
CTTATCTC | -0.193
AACACGCG | 0.264
ATGCCCAA | -0.185
CCCAGATA | -0.232
CTCCCACC | -0.0331

Sample 2
Target: Interferon regulatory factor 3, full length, phosphomimetic (IRF3, Homo sapiens, UniProt Q14653, residues 1-427, S386D/S396D/S398D/S402D/T404D/S405D)
Technique: protein-binding microarray
Form: double-stranded DNA, one strand shown
Matrix: in vitro
Tested at: 2540 nM top
Setting: 60-bp whole probe
With: salmon DNA 0.4 mg/ml
Reference: random background probes
Direction: higher = stronger binding
All sequences stand within: GCCTAGCAC … GTCTTGATTCGCTTGACGCTGCTG
Target sequence (chain): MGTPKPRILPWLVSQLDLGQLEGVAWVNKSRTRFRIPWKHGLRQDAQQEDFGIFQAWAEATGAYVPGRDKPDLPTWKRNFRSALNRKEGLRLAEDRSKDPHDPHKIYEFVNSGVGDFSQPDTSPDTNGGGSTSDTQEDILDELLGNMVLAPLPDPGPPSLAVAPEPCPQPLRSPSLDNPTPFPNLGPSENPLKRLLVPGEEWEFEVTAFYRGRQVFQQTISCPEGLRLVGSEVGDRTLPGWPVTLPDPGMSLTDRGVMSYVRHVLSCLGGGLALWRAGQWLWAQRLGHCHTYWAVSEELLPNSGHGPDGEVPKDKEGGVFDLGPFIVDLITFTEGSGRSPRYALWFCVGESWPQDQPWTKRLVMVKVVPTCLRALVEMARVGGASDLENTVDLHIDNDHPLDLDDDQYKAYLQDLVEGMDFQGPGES
Sequence | fitted relative affinity [z-score]
GACGGACTGGACTATCGTGACGTGCTA | -0.577
TTAGGTCTCCTTCTCCTTTTGTGCTAG | 4.37
AAAGTTATCACTTCCAAAGTGTGCTAG | 2
AATAAAATGAATATTAGAAGGTGCTAG | -0.0207
ATTAGTATGTTCACTATTTAAGTGCTA | 0.637
TTAGCACTGCTTTTCCTTTAGTGCTAG | 0.575
TCACTTCTGTATTCATGACTGTGCTAG | 1.39
GGCTCTCTGGACTGTGTGTTTGTGCTA | -1.05
TCAAAGATTGCCGTTTCCACTGTGCTA | 2.1
GACGGTATAGGTATCGGGACGTGCTAG | 0.537
GACGGTATCGGGTTTAGGGACGTGCTA | 2.2
TTAGATTTTAGTTCCGATTAGTGCTAG | 2.2
TCAGGCTTTCCTTTATGACTGTGCTAG | 2.91
TTAGGACTGGGGTTTCGATTAGTGCTA | 1.08
GACGGTCTGCTTATCCTGACGTGCTAG | 0.0281
CTAGTTTTTACTTTCTGAATGTGCTAG | 3.38
TTAGGACTTGACTTTCGGTTAGTGCTA | 1.16
TTAGATCTCTGTTTCGATTAGTGCTAG | 2.87
TTAGGTTCCGGTTTCGGGTAGTGCTAG | 6.37
TTAGTACTGGGTATCGGTTAGTGCTAG | 0.644
GAGTTTCTATTTTCTGAATGGTGCTAG | 4.92
TCACAATTTGCTTTAGTACTGTGCTAG | 0.45
TCACTTCTCCATTTTTCACTGTGCTAG | 2.44
GACGATATCAGACTGGAGAGGTGCTAG | 0.144
GTGTACATCTCTCTTAAATAGTGCTAG | 1.05

Sample 3
Target: RNA binding protein fox-1 homolog 2, RRM domain, GST-SBP tag (RBFOX2, Homo sapiens, UniProt O43251-10, residues 100-194)
Technique: RNA Bind-n-Seq
Form: RNA
Matrix: in vitro
Tested at: 365 nM
Setting: natural RNA segment, single round, ends assumed
Reference: no-protein control
Direction: higher = stronger binding
All sequences stand within: GGGAGUUCUACAGUCCGACGAUC … UGGAAUUCUCGGGUGCCAA
Construct (chain): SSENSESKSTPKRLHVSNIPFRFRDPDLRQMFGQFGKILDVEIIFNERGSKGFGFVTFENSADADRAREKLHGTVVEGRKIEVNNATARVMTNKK
Sequence | RBNS enrichment (R)
CAAAAUAGACAAGGUCACUUAUCCUGCCAUAUUGUCUCUUUGUAUAUAAAGAUGUUCAUAUUUUAGGAAUAUUUGCAUAACUCAAGUGGAUAAAACAUUAAAAUGAAAAC | 0.285
CCAAAGCUGGUAGAGCAGCUAUCAUGCCUCAGGCCAUGGACAUUUGAAUGGGAGCCUCAGGCAUGAUGUGCAGAAAUAGCCUUCUACACCAGGCAGGGACAGGUUGCCUG | 0.935
CAGUGCUACAAUUAAUGAAGCAAAACUUAAUAUGUAAUCACAAUCUAAAUUAGCAUCAAUACUUUGACAUUCAUUACAUUGGUUUGGGGGAAGAAAAGUAGUUCUGGUAU | 0.769
UUUGCAAGCAAUGGGAUGAGCAAGAAAAAAAGGACGCAUGGAGGAGAAAAAUUUGAACGAGGCUAGUGCAAUGUUUUGCUGAUAGAUUACAUUGUUAGGGAGCUGGUGAU | 6.11
GCCGCCCUGUGGACUCCUGGGGCUGGUGCCAGUGCCCCAGGCCUGUGGGUGAGGGGCUCAAGGCCCCCCUGGAGGACCUUGGUCUCGAAGCCAUACGUGGUUGUCUGCCU | 0.235
AUGAAGAAGUUCAACCUGGAGAGAUGGAAAAUCAGCUCUCAUAACUAAGUUAAUUUAGUAUAAAAAUAGAAUUGAUAGUGAGGGUAUAAAGUGUAACCAUCAGUUAAACC | 0.459
ACUGUCUUGCUAAUGUUCUGAUCACUGUGCGCCCCCUCCCUCUUCAGAAGGACCCUGGGCCUCUUGAGUUGGCCCCUCUGAGUUCCCUCCCUUUGCCCAUUUCAAGGACA | 3.84
UGAUUGCUCUUAGGUGAGUUCCGAGUCUUAAUCUAUGCAUUCAGAGAAAUAUUUUUAUAUGCGUUGUGUAAUUUAUAACAAGGGGUUUUCUUUUAGGCUUUGUUAACUGA | 0.484
UUGUAGUCUCACAGUAUAACAGAUAUUCUAAUUCUUCUUAAUAUUCCCCCAUAAUGCCAGAAAUUGGCUUAAUGAUGCUUUCACUAAAUUCAUCAAAUAGAUUGCUCCUA | 0.921
CGUAGUUUUCGCAUCCUUGAAUUAAACUGCCUUAACUCCUUUUGUGGUAUAAGCAAAACUACAUGGACUCUGUCCUGGUAUCCUUUUCCUGUGUGGUUGCCCCGUGUCCU | 0.581
GAUUAGUUAUGCAGUAUUUCUUAUCAAUGUCUAGCCCUUGUGUAUUGUUCUGAAAACUAAAGUUUAAAUCUUUAUGCUGUUGCUUGCUAGAUAUCCUGUUCUUUGGUAGA | 1.52
GCUGGGGUAGUCACCAGCUUACUGUGGGUACAGGGCUCUUAGCUUGUAUGUGUUCUCCCUUCCUUGAAUCUCUUGUAUGGCCCUAGAACUUUGGUCAGGUGUGUUUAUGG | 1.57

Sample 4
Target: Ras GTPase-activating protein-binding protein 1, full length (G3BP1, Homo sapiens, UniProt Q13283)
Chain of UniProt Q13283 (whole entry, looked up): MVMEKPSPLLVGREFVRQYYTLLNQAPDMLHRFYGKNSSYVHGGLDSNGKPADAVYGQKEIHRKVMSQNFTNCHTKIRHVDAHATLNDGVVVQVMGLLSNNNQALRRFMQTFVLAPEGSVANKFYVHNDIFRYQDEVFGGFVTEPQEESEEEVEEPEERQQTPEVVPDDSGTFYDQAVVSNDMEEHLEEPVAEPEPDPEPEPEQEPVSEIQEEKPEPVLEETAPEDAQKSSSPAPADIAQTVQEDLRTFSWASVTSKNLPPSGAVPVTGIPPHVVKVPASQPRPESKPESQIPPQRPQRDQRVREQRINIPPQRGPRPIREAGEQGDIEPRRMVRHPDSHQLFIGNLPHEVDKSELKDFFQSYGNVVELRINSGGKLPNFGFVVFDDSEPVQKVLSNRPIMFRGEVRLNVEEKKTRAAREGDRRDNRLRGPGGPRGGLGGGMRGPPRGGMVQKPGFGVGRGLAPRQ
Technique: RNA Bind-n-Seq
Form: RNA
Matrix: in vitro
Tested at: 200 nM
Setting: whole 134-nt RNA, ends assumed
With: 150 mM KCl
Reference: input library
Direction: higher = stronger binding
All sequences stand within: GGGAGUUCUACAGUCCGACGAUC … UGGAAUUCUCGGGUGUCAAGG
Sequence | log2 enrichment
AGUCCUGUGCUACACAUCGUAUGUACCGAAUCGGGGAGGGGUUUUUGGGGUUUGGGGAAAGUAUUAUGUUACGCCGUUCGGAUCUGCACU | 0.426
GCAGGACGUAAAAACAAAUGGAAAUGCUUCGGAUAGUGGCAGGGGUGGGGGUUGCUAAGGAAAGGGUGGGAUGGGAGUGGGUAAAGAGUU | 1.39
UGGGAGGUGGAUUUUGUUUAUUUUUUUAGCUCAUUUCCAGGGGUGGGAAUUUUUUUUUAAUAUGUGUAAUGAAUAAAGUUGUUUUUGAAA | 0.0986
UCAAGUCCUGUGCUACACAUCGUAUGUACCGAAUCGGAGGAAAGGAAAAAAAGGAAAGUAUUAUGUUACGCCGUUCGGAUCUGCACUUCC | -0.969
CAAGUCCUGUGCUACACAUCGUAUGUACCGAAUCGGGUUUGGUUUGGGGUUUGGGGAAAGUAUUAUGUUACGCCGUUCGGAUCUGCACUU | 0.0837
CACAGACAACACGCACCCACACAGACACAGAGGGAAGGGGUUGGGAUGGGGACAGGGUGCCCAGCAGGGCGGGGUAGGACCCCAGCCCCU | 1.59
GAGGGAGUUUGCAGAUACCUCAGGAUUCGUGACAAUGCCUUUAAAGAUCCAGGAGAGAUGUUCAGCUACUAGGAACUGCUAGCAAGUAUA | -0.596
AAGUCCUGUGCUACACAUCGUAUGUACCGAAUCGUGUGUGUGUGUGUGUGUGUGUGUAAAGUAUUAUGUUACGCCGUUCGGAUCUGCACU | 0.557
UCCUGUGCUACACAUCGUAUGUACCGAAUCGGGGUUUUUGGGGUUUGGGGAAAAAGGGGAAAGUAUUAUGUUACGCCGUUCGGAUCUGCA | 0.625
ACCAUGCAGGUGGGCAUCUUUGGGAAGUGGGGCAAGGGGGGGAAAAGGAGGGGGGUAACACUUUGGGAACAGGUGGUCCCAGGUCGUUUC | 0.964

Repeated from above (sample 2):
Sequence | fitted relative affinity [z-score]
AAAGTTATCACTTCCAAAGTGTGCTAG | 2
AATAAAATGAATATTAGAAGGTGCTAG | -0.0207
ATTAGTATGTTCACTATTTAAGTGCTA | 0.637
TTAGCACTGCTTTTCCTTTAGTGCTAG | 0.575
TCACTTCTGTATTCATGACTGTGCTAG | 1.39
GGCTCTCTGGACTGTGTGTTTGTGCTA | -1.05
TCAAAGATTGCCGTTTCCACTGTGCTA | 2.1
GACGGTATAGGTATCGGGACGTGCTAG | 0.537
GACGGTATCGGGTTTAGGGACGTGCTA | 2.2
TTAGATTTTAGTTCCGATTAGTGCTAG | 2.2
